# Measurements collected from several papers.
# Compare with care: the assays were run in different laboratories. Values joined by “and” are separate records of one study, mostly repeats; a detail may differ. ± gives the spread as reported.
# CGAS catalytic domain; with DNA: Cyclic GMP-AMP synthase, catalytic domain; with DNA (CGAS, Homo sapiens, UniProt Q8N884)
# Chain of UniProt Q8N884 (whole entry, looked up): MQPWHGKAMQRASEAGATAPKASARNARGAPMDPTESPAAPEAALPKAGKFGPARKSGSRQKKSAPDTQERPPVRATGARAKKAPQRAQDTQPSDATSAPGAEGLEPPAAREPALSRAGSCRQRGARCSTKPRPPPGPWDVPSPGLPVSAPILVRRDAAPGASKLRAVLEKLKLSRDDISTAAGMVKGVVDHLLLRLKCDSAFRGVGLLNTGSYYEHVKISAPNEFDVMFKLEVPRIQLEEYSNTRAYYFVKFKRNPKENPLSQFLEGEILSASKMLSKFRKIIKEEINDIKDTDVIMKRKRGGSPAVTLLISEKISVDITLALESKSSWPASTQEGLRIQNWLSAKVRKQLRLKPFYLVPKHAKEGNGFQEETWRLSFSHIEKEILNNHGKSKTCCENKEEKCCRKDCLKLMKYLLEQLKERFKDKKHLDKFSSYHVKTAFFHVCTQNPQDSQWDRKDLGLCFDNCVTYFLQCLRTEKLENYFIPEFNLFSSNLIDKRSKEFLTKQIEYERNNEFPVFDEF
# HTR3A: 5-hydroxytryptamine receptor 3A (HTR3A, Homo sapiens, UniProt P46098)
# Chain of UniProt P46098 (whole entry, looked up): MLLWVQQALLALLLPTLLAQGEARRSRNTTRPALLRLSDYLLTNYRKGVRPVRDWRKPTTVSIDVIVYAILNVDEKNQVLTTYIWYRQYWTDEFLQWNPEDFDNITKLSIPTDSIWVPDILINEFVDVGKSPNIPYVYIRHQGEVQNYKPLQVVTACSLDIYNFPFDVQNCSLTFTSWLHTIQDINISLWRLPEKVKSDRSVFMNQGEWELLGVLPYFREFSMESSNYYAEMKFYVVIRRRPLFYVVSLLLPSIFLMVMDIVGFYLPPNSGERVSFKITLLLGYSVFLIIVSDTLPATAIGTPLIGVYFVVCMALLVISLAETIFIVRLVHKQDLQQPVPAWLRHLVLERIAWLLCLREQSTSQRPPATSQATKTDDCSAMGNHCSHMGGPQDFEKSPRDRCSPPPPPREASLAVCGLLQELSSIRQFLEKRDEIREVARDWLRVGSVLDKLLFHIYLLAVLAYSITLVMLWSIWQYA
# Trypanothione synthetase: Trypanothione synthetase (Trypanosoma brucei brucei, UniProt Q586P2)
# Chain of UniProt Q8IWT6 (whole entry, unmodified, looked up): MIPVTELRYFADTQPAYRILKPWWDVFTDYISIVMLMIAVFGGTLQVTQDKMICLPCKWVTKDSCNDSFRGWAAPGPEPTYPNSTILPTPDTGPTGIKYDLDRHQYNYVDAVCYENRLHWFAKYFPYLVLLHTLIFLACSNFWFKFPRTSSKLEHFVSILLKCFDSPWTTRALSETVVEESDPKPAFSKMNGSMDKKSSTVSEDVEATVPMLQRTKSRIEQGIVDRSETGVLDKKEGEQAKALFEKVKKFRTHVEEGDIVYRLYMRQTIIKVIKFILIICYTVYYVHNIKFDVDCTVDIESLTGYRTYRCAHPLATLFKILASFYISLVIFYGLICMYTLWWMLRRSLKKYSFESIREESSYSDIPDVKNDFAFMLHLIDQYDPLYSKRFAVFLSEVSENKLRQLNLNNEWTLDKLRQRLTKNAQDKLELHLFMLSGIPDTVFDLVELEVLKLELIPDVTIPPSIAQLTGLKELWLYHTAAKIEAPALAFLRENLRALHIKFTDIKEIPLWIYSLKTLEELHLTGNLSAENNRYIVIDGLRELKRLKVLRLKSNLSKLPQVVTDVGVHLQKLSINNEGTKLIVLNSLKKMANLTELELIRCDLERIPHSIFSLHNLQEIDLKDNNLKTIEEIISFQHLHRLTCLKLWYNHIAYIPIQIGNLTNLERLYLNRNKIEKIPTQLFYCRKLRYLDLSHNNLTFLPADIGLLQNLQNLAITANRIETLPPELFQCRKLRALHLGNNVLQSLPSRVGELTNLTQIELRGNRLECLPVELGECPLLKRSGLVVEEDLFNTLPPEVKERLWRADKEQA
# Chain of UniProt P42338 (whole entry, looked up): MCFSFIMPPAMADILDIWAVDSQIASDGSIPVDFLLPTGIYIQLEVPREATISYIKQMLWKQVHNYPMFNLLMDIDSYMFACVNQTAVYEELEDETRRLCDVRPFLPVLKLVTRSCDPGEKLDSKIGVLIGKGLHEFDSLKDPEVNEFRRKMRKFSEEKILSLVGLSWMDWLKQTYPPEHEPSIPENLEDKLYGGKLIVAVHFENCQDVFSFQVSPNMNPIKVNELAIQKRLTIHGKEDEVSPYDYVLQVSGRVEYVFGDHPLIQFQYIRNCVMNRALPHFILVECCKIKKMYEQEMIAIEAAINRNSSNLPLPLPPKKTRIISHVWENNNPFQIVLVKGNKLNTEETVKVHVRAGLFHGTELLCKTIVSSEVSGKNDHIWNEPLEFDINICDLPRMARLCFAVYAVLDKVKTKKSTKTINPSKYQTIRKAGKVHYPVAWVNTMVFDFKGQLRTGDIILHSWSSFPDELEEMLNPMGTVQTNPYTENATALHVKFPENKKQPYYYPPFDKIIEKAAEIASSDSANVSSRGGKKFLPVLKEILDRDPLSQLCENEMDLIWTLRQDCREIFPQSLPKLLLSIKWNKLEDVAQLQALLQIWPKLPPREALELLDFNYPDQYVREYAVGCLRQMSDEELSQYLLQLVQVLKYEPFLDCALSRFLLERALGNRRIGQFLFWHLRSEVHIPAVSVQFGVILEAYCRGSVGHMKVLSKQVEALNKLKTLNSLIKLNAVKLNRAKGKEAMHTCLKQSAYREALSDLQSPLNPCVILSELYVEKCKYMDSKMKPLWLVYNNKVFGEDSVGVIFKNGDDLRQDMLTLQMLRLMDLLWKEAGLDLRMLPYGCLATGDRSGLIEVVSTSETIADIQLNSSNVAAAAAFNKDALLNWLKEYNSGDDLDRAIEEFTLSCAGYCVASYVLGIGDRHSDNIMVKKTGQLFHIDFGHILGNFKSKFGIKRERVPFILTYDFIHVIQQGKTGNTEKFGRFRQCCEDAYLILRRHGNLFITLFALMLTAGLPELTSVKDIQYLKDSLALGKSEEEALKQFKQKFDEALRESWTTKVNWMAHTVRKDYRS
# Chain of UniProt P54750 (whole entry, looked up): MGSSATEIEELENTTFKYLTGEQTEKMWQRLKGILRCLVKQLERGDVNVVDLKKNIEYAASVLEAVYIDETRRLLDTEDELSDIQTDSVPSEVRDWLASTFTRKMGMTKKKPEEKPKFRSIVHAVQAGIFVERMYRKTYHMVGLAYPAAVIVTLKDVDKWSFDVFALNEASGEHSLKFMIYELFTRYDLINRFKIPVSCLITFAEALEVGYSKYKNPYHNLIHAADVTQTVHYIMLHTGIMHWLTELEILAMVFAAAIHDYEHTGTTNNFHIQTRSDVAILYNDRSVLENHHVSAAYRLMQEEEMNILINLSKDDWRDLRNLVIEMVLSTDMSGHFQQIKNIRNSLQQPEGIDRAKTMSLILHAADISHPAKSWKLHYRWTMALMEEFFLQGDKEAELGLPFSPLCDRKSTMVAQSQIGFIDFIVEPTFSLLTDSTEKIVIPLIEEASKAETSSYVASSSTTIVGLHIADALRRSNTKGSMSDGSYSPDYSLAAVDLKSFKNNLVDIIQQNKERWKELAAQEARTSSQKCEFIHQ
# Chain of UniProt P08575 (whole entry, looked up): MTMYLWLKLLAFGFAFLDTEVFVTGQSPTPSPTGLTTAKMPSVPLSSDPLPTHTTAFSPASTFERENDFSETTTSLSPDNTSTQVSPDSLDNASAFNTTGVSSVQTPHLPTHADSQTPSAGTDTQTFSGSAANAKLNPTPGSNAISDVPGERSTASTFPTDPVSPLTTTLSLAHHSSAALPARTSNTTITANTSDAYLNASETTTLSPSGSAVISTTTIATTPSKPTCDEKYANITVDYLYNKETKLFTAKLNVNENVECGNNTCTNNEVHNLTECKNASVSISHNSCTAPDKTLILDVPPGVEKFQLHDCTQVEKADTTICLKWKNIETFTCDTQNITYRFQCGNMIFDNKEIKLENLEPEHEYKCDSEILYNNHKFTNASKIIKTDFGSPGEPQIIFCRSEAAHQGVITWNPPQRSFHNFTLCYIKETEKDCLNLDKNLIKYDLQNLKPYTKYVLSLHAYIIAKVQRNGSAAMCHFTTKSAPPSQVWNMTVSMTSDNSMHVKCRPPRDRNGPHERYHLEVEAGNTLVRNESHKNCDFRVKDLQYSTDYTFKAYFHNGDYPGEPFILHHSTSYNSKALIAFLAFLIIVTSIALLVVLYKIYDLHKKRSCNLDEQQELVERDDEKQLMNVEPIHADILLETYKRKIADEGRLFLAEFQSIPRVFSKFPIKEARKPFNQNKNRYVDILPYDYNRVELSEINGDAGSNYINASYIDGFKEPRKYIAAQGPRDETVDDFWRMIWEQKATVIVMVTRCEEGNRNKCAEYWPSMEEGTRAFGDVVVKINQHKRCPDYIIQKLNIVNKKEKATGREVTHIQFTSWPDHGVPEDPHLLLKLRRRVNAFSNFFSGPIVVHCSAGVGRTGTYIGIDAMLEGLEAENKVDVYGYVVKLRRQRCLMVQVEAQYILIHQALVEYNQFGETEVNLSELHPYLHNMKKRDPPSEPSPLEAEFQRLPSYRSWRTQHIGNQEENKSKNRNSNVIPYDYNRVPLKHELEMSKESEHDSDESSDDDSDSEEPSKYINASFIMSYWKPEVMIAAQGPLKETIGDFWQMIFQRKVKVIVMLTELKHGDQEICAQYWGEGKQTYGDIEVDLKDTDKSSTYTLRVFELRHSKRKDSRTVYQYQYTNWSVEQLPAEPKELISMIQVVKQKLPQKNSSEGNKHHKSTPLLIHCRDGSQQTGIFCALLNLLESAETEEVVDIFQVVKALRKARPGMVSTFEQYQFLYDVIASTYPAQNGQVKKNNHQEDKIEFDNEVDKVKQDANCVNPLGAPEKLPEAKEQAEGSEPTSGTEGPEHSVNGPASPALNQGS
# Chain of UniProt P52564 (whole entry, looked up): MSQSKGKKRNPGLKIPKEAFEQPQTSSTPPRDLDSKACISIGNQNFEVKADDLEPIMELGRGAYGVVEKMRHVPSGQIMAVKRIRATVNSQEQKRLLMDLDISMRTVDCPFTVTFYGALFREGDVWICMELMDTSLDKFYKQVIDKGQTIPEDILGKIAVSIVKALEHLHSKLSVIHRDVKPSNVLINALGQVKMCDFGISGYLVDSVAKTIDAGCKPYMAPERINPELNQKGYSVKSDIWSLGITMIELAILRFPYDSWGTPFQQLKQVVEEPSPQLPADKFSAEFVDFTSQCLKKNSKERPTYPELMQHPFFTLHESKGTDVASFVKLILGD
SMILES,tested on,assay,test system,setting,how to read,quantity,value
O=C(Cc1cccnc1)Nc1ccc(C2CCCCC2)cc1,,,cryopreserved rat hepatocytes,1 µM,,hepatic clearance,46 mL/min/kg
Cc1cc2c(cc1N1C(=O)c3cccc4c(CCCO)ccc(c34)C1=O)n(C)c(=O)n2C (racemic),"Transcription intermediary factor 1-alpha, PHD-bromodomain (TRIM24, Homo sapiens, UniProt O15164)","binding, BROMOscan",,"100 nM, PHD-bromodomain",,inhibition,81%
N[C@@H](CCC(=O)O)C(=O)O,rat Glutamate receptor,binding,,1 × 10 µM,,inhibition,96%
COc1ccc(F)cc1C(=O)NCc1ccc(-c2nn([C@@H](C)C(F)(F)F)c(N)c2C(N)=O)cc1,"PIK3CB (Homo sapiens, UniProt P42338)","target engagement, competitive chemoproteomics",human PBMCs,0.01 µM,,inhibition,7.3%
Cc1nn(-c2nc3ccccc3[nH]2)c(O)c1C(c1ccccn1)c1c(C)nn(-c2nc3ccccc3[nH]2)c1O,CGAS catalytic domain; with DNA,"liquid-liquid phase separation, inhibitor",,12.5 µM,,inhibition,57.4%
COc1ccccc1N1CCN(CCCCN2CCc3ccccc3C2=O)CC1,HTR3A,radioligand binding,,"concentration not given, with: [3H]GR65630",,inhibition,27.1%
CN1CC(Oc2cnc(C#N)cc2-c2ccn3nc(NC(=O)C4CC4)cc3c2)C1,"CSNK2A1 (Homo sapiens, UniProt P68400)",kinase activity,,"1 µM, ATP10",,inhibition,2%
CC[C@@H]1[C@H](F)C(=O)N[C@@H]1COc1nccc2cc(C(N)=O)c(OC)cc12,"MAP2K6 (Homo sapiens, UniProt P52564)","ATP-site probe binding, ActivX profiling",THP-1 cell lysate,"0.2 mM, Lys2 site",,inhibition,12.8%
CC(C)C[C@H](NC(=O)C[C@H](O)[C@H](CC(C)C)NC(=O)[C@H](Cc1c[nH]cn1)NC(=O)CNC(=O)[C@@H](NC(=O)[C@H](C)NC(=O)[C@H](Cc1c[nH]c2ccccc12)NC(=O)[C@H](CCC(N)=O)NC(=O)[C@@H](Cc1ccccc1)NC(=O)COCCOCCNC(=O)CCC(C(=O)O)N1CCN(CC(=O)O)CCN(CC(=O)O)CCN(CC(=O)O)CC1)C(C)C)C(N)=O (stereo partly shown) [lutetium-177 labelled],,,"BALB/c nu/nu mice, stomach","intravenous, 250 pmol, 1 h, with: PA 300 µg",,tissue uptake,1.2 ± 0.6 %ID/g
O=C(Nc1cccc2c(=O)cc(-c3nnn[nH]3)oc12)c1ccc(OCCCCc2ccccc2)cc1,"Volume-regulated anion channel subunit LRRC8C, part LRRC8A IL1 chimera (LRRC8C, Homo sapiens, UniProt Q8TDW0, L136K)","ion current, inhibitor, whole-cell patch clamp",HCT LRRC8-/- cells,"3 µM, -100 mV",,inhibition,85% and 75.2% and 90.7% and 77.7%
COc1ccccc1OCCNCC(O)COc1cccc2[nH]c3ccccc3c12 (stereo not shown),Trypanothione synthetase,"enzyme activity, inhibitor, phosphate release",,25 µM,,inhibition,23.7 ± 6.4%
CNc1cc(Oc2cc(C(=O)Nc3cc(N4CCN(C)CC4)cc(C(F)(F)F)c3)ccc2C)ncn1,"STK26 (Homo sapiens, UniProt Q9P289)",kinase activity,,1 µM,,inhibition,-27.6%
Cc1nn(-c2nc3ccccc3s2)c(O)c1C(c1ccccc1C(=O)O)c1c(C)nn(-c2nc3ccccc3s2)c1O,CGAS catalytic domain; with DNA,"cGAS phase separation, inhibitor",,5 µM,,inhibition,96.8%
C[C@@H]1CCO[C@H]2Cn3cc(C(=O)NCc4ccc(F)cc4F)c(=O)c(O)c3C(=O)N12,"SLC22A3 (Homo sapiens, UniProt O75751)",transport,"MDCK-II, transfected","30 µM, with: MPP+ 2 µM",,inhibition,-1.2%
Cc1nn(-c2nc3ccccc3[nH]2)c(O)c1C(c1ccccc1C(=O)O)c1c(C)nn(-c2nc3ccccc3[nH]2)c1O,CGAS catalytic domain; with DNA,"liquid-liquid phase separation, inhibitor",,1.25 µM,,inhibition,86.4%
O=C(Nc1ccc(C2CCCCC2)cc1)[C@H]1CC1(F)F,,hepatocyte stability,cryopreserved mouse hepatocytes,1 µM,,hepatic clearance,78 mL/min/kg
Cc1cc(Nc2cc3ncccc3c(N[C@@H]3C[C@H]4CC[C@@H](C3)N4CCC#N)n2)n[nH]1,MT3 melatonin receptor hamster,"radioligand binding, Eurofins binding panel",,10 µM,,inhibition,> 50%
OO,"Histone acetyltransferase GCN5, with Ada2 and Ada3 (Saccharomyces cerevisiae S288c, UniProt Q03330)","enzyme activity, inhibitor",,"62.5 µM, Gcn5-Ada2-Ada3 complex, no DTT, with: [3H]acetyl-CoA",,inhibition,10 ± 10%
O=C(CSc1nc2nccnc2c(=O)n1CCc1ccccc1)Nc1nccs1,"Phosphatidylinositol 4,5-bisphosphate 3-kinase catalytic subunit beta isoform, with p85 beta (PIK3CB, Homo sapiens, UniProt P42338)","kinase activity, inhibitor",,"10 µM, with: PIK3R2 complex",,inhibition,8%
COc1cc(C(=O)NS(=O)(=O)c2ccccc2C)ccc1Cc1cn(C)c2ccc(NC(=O)OC3CCCC3)cc12,"LRRC8A/LRRC8C (Homo sapiens, UniProt Q8IWT6+Q8TDW0, L134K/L136K)","ion current, whole-cell patch clamp",HCT LRRC8-/- cells,"1 µM, +100 mV, L134K/L136K heteromers",,inhibition,24.3% and 9.21% and 10.1% and 47.3% and 23.4%
O=C(O)c1cc(O)c2c(c1)C(=O)c1cc(O)cc(O)c1C2=O,"AVPR1A (Homo sapiens, UniProt P37288)","calcium mobilization, antagonist, fluorimetry",,"50 µM, with: 10 nM vasopressin",,inhibition,0.85 ± 10.7%
COc1cc2c(cc1OC)C(=O)C(CC1CCN(Cc3ccccc3)CC1)C2 (stereo not shown),HTR3A,radioligand binding,,"concentration not given, with: [3H]GR65630",,inhibition,10.7%
CCN(CC)c1ccc(C2=NNC(=O)CC2C)cc1[N+](=O)[O-] (stereo not shown),"Dual specificity calcium/calmodulin-dependent 3',5'-cyclic nucleotide phosphodiesterase 1A, PDE1A1 isoform (PDE1A, Homo sapiens, UniProt P54750)",enzyme activity,,100 nM,,inhibition,3% and 7%
CCN(CC)C(=S)S,"PTPRC (Homo sapiens, UniProt P08575)","Lck phosphorylation, inhibitor, immunoblot",,"75 µM, 2 min",,inhibition,no inhibition
CNc1ccc(-c2nc3ccc(O)cc3s2)cc1,"Amyloid-beta precursor protein, amyloid-beta (APP, Homo sapiens, UniProt P05067)","binding, competition binding",amyloid-beta aggregates,"100 nM, with: tritiated amyloid ligand",,inhibition,77.7% and 82.7%
CS(=O)(=O)O.c1cc2c(cc1C1CCCCC1)c1c3n2CCNC3CCC1 (stereo not shown),Trypanothione synthetase,"enzyme activity, BIOMOL Green phosphate release",,25 µM,,inhibition,26 ± 4.6%
CN(C(=O)n1cnc(-c2ccc[n+]([O-])c2)c1)C1CCCCC1,"SIGMAR1 (Homo sapiens, UniProt Q99720)",,,10 µM,,inhibition,7.89%
CCN1/C(=C/C(C)=O)Sc2ccc(F)cc21,"NR3C1 (Homo sapiens, UniProt P04150)",,,10 µM,,inhibition,9.04%
COc1cccc(OC[C@@H]2CN(CC(=O)N3CCc4ccccc43)CCO2)c1,HTR3A,radioligand binding,,"concentration not given, with: [3H]GR65630",,inhibition,18.6%
C[C@H]1[C@H](OC(=O)CCC(=O)O)O[C@@H]2O[C@@]3(C)CC[C@H]4[C@H](C)CC[C@@H]1[C@@]24OO3,"Non-structural polyprotein pORF1, RNA-dependent RNA polymerase (Hepatitis E virus genotype 1, UniProt P33424)","polymerase activity, colorimetric",,9.7 µM,,inhibition,29.8%
Clc1cncc(OC[C@@H]2CN(CCN3CCc4ccccc43)CCO2)c1,HTR3A,radioligand binding,,"concentration not given, with: [3H]GR65630",,inhibition,3.6%
Cn1cc(-c2ccc(-c3cncc(Cl)c3N3CCC4(CCNC4=O)CC3)cc2)cn1,COLO 205,"gene expression, microarray, refers to: HOXA4 mRNA",,"concentration not given, 6 h",baseline: untreated cells,log2 fold change,-1.01
O=C1c2ccccc2CCCN1CCCCN1CCN(c2ccccn2)CC1,HTR3A,radioligand binding,,"concentration not given, with: [3H]GR65630",,inhibition,19.4%
C#Cc1cc(-c2cc(Nc3nc(N[C@@H](C)c4ccc(F)cn4)ncc3Cl)n[nH]2)ccc1C=O,"NTRK1 (Homo sapiens, UniProt P04629, A608D/G595R)","enzyme activity, inhibitor",,0.2 µM,,inhibition,101%
O=C(NO)c1ccc(CN2CCCCc3ccccc32)c(F)c1,HTR3A,"radioligand binding, radioligand displacement",,10 µM,,inhibition,-6.16%
Cc1ccc(OC[C@H]2CN(CCN3CCc4ccccc43)CCO2)cn1,HTR3A,radioligand binding,,"concentration not given, with: [3H]GR65630",,inhibition,-15%
CN1CCN(c2cc(-c3ccncc3)c(-c3ccc4ccccc4c3)nn2)CC1,"GRPR (Homo sapiens, UniProt P30550)","antagonist, FLIPR",,10 µM,,inhibition,10.9%

# A few entries again:
SMILES,tested on,assay,test system,setting,how to read,quantity,value
COc1cc(C(=O)NS(=O)(=O)c2ccccc2C)ccc1Cc1cn(C)c2ccc(NC(=O)OC3CCCC3)cc12,"LRRC8A/LRRC8C (Homo sapiens, UniProt Q8IWT6+Q8TDW0, L134K/L136K)","ion current, whole-cell patch clamp",HCT LRRC8-/- cells,"1 µM, +100 mV, L134K/L136K heteromers",,inhibition,24.3% and 9.21% and 10.1% and 47.3% and 23.4%
O=C(O)c1cc(O)c2c(c1)C(=O)c1cc(O)cc(O)c1C2=O,"AVPR1A (Homo sapiens, UniProt P37288)","calcium mobilization, antagonist, fluorimetry",,"50 µM, with: 10 nM vasopressin",,inhibition,0.85 ± 10.7%
COc1cc2c(cc1OC)C(=O)C(CC1CCN(Cc3ccccc3)CC1)C2 (stereo not shown),HTR3A,radioligand binding,,"concentration not given, with: [3H]GR65630",,inhibition,10.7%
